{"data": "Published values from different studies", "target": "Myosin light chain kinase 2, skeletal/cardiac muscle (MYLK2, Homo sapiens, UniProt Q9H1R3)", "note": "Values joined by “and” are separate records of one study, mostly repeats; a detail may differ."}
{"Compound": "CN1CCN(Cc2ccc(-c3ccc(CO[C@H]4CCC[C@@H]4NC(=O)c4cc(-c5cnn(C)c5)cnc4N)cc3)cc2)CC1", "test": "enzyme activity, inhibitor", "conditions": "0.1 µM", "measurement": "inhibition", "value": "-4%"}
{"Compound": "COc1cc(Nc2nccc(-c3cnn4nc(OC)ccc34)n2)cc(C(F)(F)F)c1", "test": "binding, competition with immobilised ligand", "conditions": "1 µM", "measurement": "remaining binding", "value": "100%"}
{"Compound": "Nc1ncc2c(n1)-c1c([nH]c3ccc(C4=CCOCC4)cc13)CCC2", "test": "binding, competition with immobilised ligand", "conditions": "1 µM", "measurement": "remaining binding", "value": "100%"}
{"Compound": "CCn1cc(C(=O)O)c(=O)c2c(N)c(F)c(NC3CCCCC3)cc21", "test": "kinase activity", "conditions": "0.1 µM, together with: ATP at Km", "measurement": "inhibition", "value": "1.4%"}
{"Compound": "C=CC(=O)N1Cc2nc(-c3cc(-c4cc(Cl)cnc4Cl)c(F)cc3F)n(-c3ccncn3)c2C1", "test": "cell-free assay, inhibitor", "conditions": "1 µM", "measurement": "inhibition", "value": "-0.7%"}
{"Compound": "C=CC(=O)N1CCc2ccc(-n3c(=O)ccc4cnc5ccc(-c6cnn(C)c6)cc5c43)cc21", "test": "KINOMEscan", "conditions": "1 µM", "how to read": "reference: DMSO control", "measurement": "remaining binding", "value": "63%"}
{"Compound": "NC(=O)[C@@H](O)C[C@H]1CCc2sc3ncnc(O[C@H]4CC[C@H](N5CCOCC5)CC4)c3c21", "test": "enzyme activity, inhibitor", "conditions": "10 µM", "measurement": "inhibition", "value": "-1%"}
{"Compound": "C=CC(=O)Nc1cccc(-c2cnc3[nH]cc(C(=O)NC(C)(C)C)c3n2)c1", "test": "enzyme activity, inhibitor", "conditions": "0.1 µM", "measurement": "inhibition", "value": "4%"}
{"Compound": "Cc1cnc2nc1Nc1cccc(c1)COC/C=C/COCc1cc(ccc1OCCN1CCOCC1)N2", "test": "binding", "conditions": "0.1 µM", "measurement": "remaining binding", "value": "100%"}
{"Compound": "C=CC(=O)N1CCCC(n2c(=O)c3ncccc3n(Cc3ccc(Oc4ccccc4)cc3)c2=O)C1 (stereo not drawn)", "test": "cell-free assay, competition with immobilised ligand", "conditions": "1 µM", "measurement": "remaining binding", "value": "93%"}
{"Compound": "COCC12C(=O)NC3C4(C(OC)CC1O)C1CC5(O)C(OC)C(O)C(OC(C)=O)(C1C5OC(=O)c1ccccc1)C3(O)C(OC)C24 (stereo not drawn)", "test": "kinase activity, inhibitor, ProQinase kinase profiling", "conditions": "25 µM", "how to read": "reference: control", "measurement": "remaining activity", "value": "86% and 90%"}
{"Compound": "CNC1C[S+]2CC[S+]3CC[S+](C1)[Ru-4]321([N]=C=S)[n]2c3ccc(OC)cc3c3c4c(c5cc(F)c[n+]1c5c32)C(=O)NC4=O (stereo not drawn)", "test": "KinomeScan", "conditions": "0.1 µM", "how to read": "reference: untreated", "measurement": "remaining binding", "value": "85%"}
{"note": "Excerpt of the above:"}
{"Compound": "C=CC(=O)N1Cc2nc(-c3cc(-c4cc(Cl)cnc4Cl)c(F)cc3F)n(-c3ccncn3)c2C1", "test": "cell-free assay, inhibitor", "conditions": "1 µM", "measurement": "inhibition", "value": "-0.7%"}
{"Compound": "C=CC(=O)N1CCc2ccc(-n3c(=O)ccc4cnc5ccc(-c6cnn(C)c6)cc5c43)cc21", "test": "KINOMEscan", "conditions": "1 µM", "how to read": "reference: DMSO control", "measurement": "remaining binding", "value": "63%"}
